Experimental data collected from several papers.
Compare with care: the assays were run in different laboratories. Numbers after ± are the reported error.
CYP2C8: Cytochrome P450 2C8 (CYP2C8, Homo sapiens, UniProt P10632)

For `COCCOC(=O)C1=C(C)NC(C)=C(C(=O)OC/C=C/c2ccccc2)C1c1cccc([N+](=O)[O-])c1` (centres unmarked), the EC90 was 7.79 µM (Toxoplasma gondii; parasite growth; HFF, bradyzoite, glutamine-induced).
The viability of `C#Cc1cccc(Nc2ncnc3cc(OCCOC)c(OCCOC)cc23)c1` is reported as 39.6% (HPrEC normal prostate epithelial cells; MTT; 100 µg/mL, 2% serum).
`Nc1ccn([C@H]2CC[C@@H](CO)O2)c(=O)n1` gave a selectivity index of over 344 (HIV-1; MTT; MT4, RT L100I/V179D/Y181C mutant; reference: CC50 over EC50).
With `CCOc1cc(CC(=O)N[C@@H](CC(C)C)c2ccccc2N2CCCCC2)ccc1C(=O)O` the CL/F was 46.9 L/h (CYP2C8; human, plasma; 0.5 mg, day 1, arithmetic mean).
`Cn1cc(-c2ccc(-c3cncc(Cl)c3N3CCC4(CCNC4=O)CC3)cc2)cn1` — result for “log2 fold change”: -2.46 (COLO 205; gene expression, microarray, measured: HIST1H4J mRNA; concentration not given, 2 h; reference: untreated cells).
The selectivity index of `Cc1cn([C@H]2C[C@H](N=[N+]=[N-])[C@@H](CO)O2)c(=O)[nH]c1=O` is reported as over 144 (HIV-1; MTT; MT4, RT L100I/V179D/Y181C mutant; reference: CC50 over EC50).
`Cc1cc(Nc2ccc(S(F)(F)(F)(F)F)cc2)n2nc(C(C)(F)F)nc2n1` — result for “patients with abdominal pain”: 0% (Plasmodium falciparum; P. falciparum malaria patients; oral, 400 mg).
`Cc1cc(Nc2ncnc3ccc(NC4=NC(C)(CO)CO4)cc23)ccc1Oc1ccn2ncnc2c1` (centres unmarked) gave an AUC(0-last) of 450 ng·h/mL (CYP2C8; human, plasma; oral, 300 mg tucatinib single dose, day 1, arithmetic mean).
Under “QTc interval change”, `CCN1/C(=C/C(C)=O)Sc2ccc(F)cc21` is recorded as 99.8 ± 2.1% (cynomolgus monkey; oral, 100 mg/kg, 0.5 h post-dose; reference: pre-dose).
Under “mean revertant colonies”, `Cc1cc(N)c2c(OCC(C)(C)C(=O)NC(C)C)cccc2n1` is recorded as 100 colonies/plate (Salmonella typhimurium; reverse mutation, plate incorporation; TA100; 50 µg/plate, without S9).
`CC[C@H](CO)N(CCN(N=O)[C@H](CC)CO)N=O` — result for “revertant colonies per plate”: 160 ± 8 (Salmonella typhimurium; mutagenicity, Ames plate incorporation; TA100; 1500 µg/plate, without S9, methanol).
`Nc1ccn([C@@H]2CS[C@H](CO)O2)c(=O)n1` has a selectivity index of over 127 (HIV-1; MT4, IIIB wild type; reference: CC50 over EC50).
For `Oc1ccccc1-c1n[nH]cc1-c1ccnc2ccccc12`, “log2 fold change” read 0.25 (RCK2 (Candida albicans); kinase binding, MIB/MS competition; Candida albicans lysate; 10 µM; reference: DMSO).
Under “geometric mean CL/F”, `Cc1cc(Nc2ncnc3ccc(NC4=NC(C)(C)CO4)cc23)ccc1Oc1ccn2ncnc2c1` is recorded as 121 L/h (CYP2C8; substrate; human, plasma; oral, 300 mg single dose, day 1).
For `CC(=NNC(=O)COc1ccc2c(C)c(Cc3ccccc3)c(=O)oc2c1C)c1ccc(Br)cc1`, the viability was 86.1% (HPrEC normal prostate epithelial cells; MTT; 0.4 µg/mL, 2% serum).
`CC[C@H]1[C@@H](O)[C@@H]2[C@H](CC[C@]3(C)[C@@H]([C@H](C)CCNC(=O)NS(=O)(=O)c4ccc(C(C)(C)C)cc4)CC[C@@H]23)[C@@]2(C)CC[C@@H](O)C[C@@H]12` — result for “AUC(0-inf) geometric mean”: 367 ng·h/mL (ATP-dependent translocase ABCB1 (ABCB1, Homo sapiens, UniProt P08183); substrate; human, plasma; dose not given, added: quinidine).
`Cn1c(Cn2ccc(C(F)(F)F)c(Oc3cc(Cl)cc(C#N)c3)c2=O)n[nH]c1=O` gave a selectivity index of over 265 (HIV-1; MTT; MT4, RT A98G/V106I/V179D/Y181C/G333E mutant; reference: CC50 over EC50).
For `O=C1c2ccccc2C(=O)c2c(NCCc3ccc(O)cc3)ccc(NCCc3ccc(O)cc3)c21`, the EC90 was 10.3 µM (Toxoplasma gondii; parasite growth, luciferase reporter; HFF, tachyzoite; 72 h).
For `CNC(=O)c1ccc(-c2cnc3ncc(Cc4ccc5ncccc5c4)n3n2)cc1F`, “patients with adverse event” read 9% (measured: Anemia; hepatocellular carcinoma patients; oral, 600 mg twice daily, expansion cohort, grade 3-4).
`Cc1oc2ccccc2c1Cc1cc(I)c(OCC(=O)O)c(I)c1`: “effect on inactivation gating” “no effect” (Voltage-gated inwardly rectifying potassium channel KCNH2 (KCNH2, Homo sapiens, UniProt Q12809); ion current, whole-cell patch clamp; HEK293 expressing hERG1; concentration not given).
